Published values pooled from the literature.
Every numbered part comes from another study and shows a few of its results, in no order. Changes are numbered by the printed parent chain.

Series 1 — target: CCNB1, cyclin fold, Cln2 fusion (human); method: yeast growth competition, sequencing; medium: yeast; setting: weak parent motif; baseline: not given; direction: higher = stronger binding
Starting sequence: CDC6 docking peptide (human); TLKGRRLVFDNQL
| Change | normalised enrichment score |
| --- | --- |
| TLKGRRLVFDDQL [N11D] | 0.483 |
| RLKGRRLVFDNQL [T1R] | 0.0377 |
| TLKLRRLVFDNQL [G4L] | -0.278 |
| GLKGRRLVFDNQL [T1G] | 0.58 |
| TLKGRRLVFDNDL [Q12D] | 0.466 |
| TLKGRQLVFDNQL [R6Q] | 0.576 |
| TLKVRRLVFDNQL [G4V] | -0.498 |
| TLPGRRLVFDNQL [K3P] | 0.0493 |
| TLKGRRLVFDNGL [Q12G] | 1.23 |
| TLKGIRLVFDNQL [R5I] | -0.331 |
| TLKGRNLVFDNQL [R6N] | 0.302 |
| TRKGRRLVFDNQL [L2R] | 1.19 |
| TLKGRRLVFDNYL [Q12Y] | 0.0708 |

Series 2 — method: protein binding microarray; molecule type: double-stranded DNA, one strand shown; medium: in vitro; concentration: not given; baseline: not given; direction: higher = stronger binding
Target: Histone acetyltransferase KAT6A, winged helix 2, GST fusion (KAT6A, Homo sapiens, UniProt Q92794, residues 85-181)
Setting: 8-mer, flanks averaged, mean of 2 arrays, mostly near background
Target sequence (chain): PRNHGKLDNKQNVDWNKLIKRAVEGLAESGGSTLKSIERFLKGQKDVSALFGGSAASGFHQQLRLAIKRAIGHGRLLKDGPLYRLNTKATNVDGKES
| Strand | E-score |
| --- | --- |
| CATAACTA | -0.0355 |
| CATAATCG | -0.0596 |
| CGAACCTC | 0.00373 |
| GGCACCCC | -0.0773 |
| GGTACACC | -0.0779 |
| GTTAACTA | -0.0531 |
| TGATGTAA | -0.0327 |
| GAAACATA | -0.0307 |
| CGAATAGA | -0.0285 |
| CGATGGAC | 0.0974 |

Series 3 — method: RNA Bind-n-Seq; molecule type: RNA; medium: in vitro; concentration: 365 nM; baseline: no-protein control; direction: higher = stronger binding
Target: RNA binding protein fox-1 homolog 2, RRM domain, GST-SBP tag (RBFOX2, Homo sapiens, UniProt O43251-10, residues 100-194)
Setting: natural RNA segment, single round, ends assumed
Construct (chain): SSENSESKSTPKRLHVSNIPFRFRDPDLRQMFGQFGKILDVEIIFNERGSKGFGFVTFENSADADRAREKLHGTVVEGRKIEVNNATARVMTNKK
| Strand | RBNS enrichment (R) |
| --- | --- |
| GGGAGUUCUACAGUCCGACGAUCGCUUGUGCACCGCCAGCUUCUGUCUCCAGAAAAGUGUAACUUUGCUCUGUUUCUGCAUGAAGCACACAUACUCUGGUGUCAACACGCUAAGUAGUUUAAAUGAGGGAAAGUGGAAUUCUCGGGUGCCAA | 4.57 |
| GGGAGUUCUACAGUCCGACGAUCAGGUUACCCUUGUUUUUCAAAGGUAUUUUUUAAACAGAUCUUUAAUAGAAUAUUUAAGCUGUGACUGUAAGAAAUAAACAAGAGUAAACUGACAGGCCUUCCUUCACGUGUGGAAUUCUCGGGUGCCAA | 0.524 |
| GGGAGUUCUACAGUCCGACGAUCCAUACAACCUAGAAAAUGUUUAAUCACAUCAUUACGUUUCUUUUAUAUAGAAGCAUAAAGAGUUGUGGAUCAGUAGCCAUUUUAGUUACUGGGGGUGGGGGGAAGGAACAUGGAAUUCUCGGGUGCCAA | 0.341 |
| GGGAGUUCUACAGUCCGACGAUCGCUGUGCCCGGGGCAGGCCUGACGGGCGGGCAGCUGAGGAUCGCAGAGCCCAUCUGCCUUACAGCCAGCCGGACAGACGUCCUACUACAUGCCACCCCCUCAGAGGACGUUGGAAUUCUCGGGUGCCAA | 0.341 |
| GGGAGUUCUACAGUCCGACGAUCUUAUUCUGACUCGCAUUGUUUGCCAACAGAAAAUAUUUUAUACUUUUGUUAUUAAAGCAUCCAGGGCAAUUUAAUAUUUGUUCCUAGAUGUAACUCAUUUGAAUAGGUUUUGGAAUUCUCGGGUGCCAA | 0.679 |
| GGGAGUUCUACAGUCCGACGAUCCCUGCCUGGCCCCACCACCUGGAGUGUUUCAGAGAAUCACUUGGUGGCAGUCACGUGGCUGACUCCUGUCUUGGGCCAUAGGCCUAGAUCCCUACCCAUGGGAAUGCAGAUGGAAUUCUCGGGUGCCAA | 0.229 |
| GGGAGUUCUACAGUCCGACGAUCCGCCCCUCCCCGCCCACUGUGCCUGUUGGCCUAUCAUAGAUCUCUAUGUUCUUGACUUUGUCUCUCCUUUCCGAGUCAAUGGUGGGUUACACUGAUCUUGUUCCACUGAUUGGAAUUCUCGGGUGCCAA | 0.5 |
| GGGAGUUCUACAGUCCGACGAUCAUUAAAUGUUUUAGUAUUUUGAACUGAAAUGGACACACAAACACACACACGCACACACAGACCCACAGCUUUGAAUGAUCAUGUUGUGGCUGAGCAGCCGCUUUUUAGACUGGAAUUCUCGGGUGCCAA | 1.67 |
| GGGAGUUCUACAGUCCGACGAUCGAGCCACCUUCCCAUCCCAGCACCAGAGACUGCAGUUUCCCUCAGUCCUCCACCCUCCCACUGCCGCCACCCCUACUGCUGCAGGCUCACAGACCUCAGUCAUGUGAUAAUGGAAUUCUCGGGUGCCAA | 0.767 |
| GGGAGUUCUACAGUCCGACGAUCUGUUUUGCGGGGAGAGGUGGCGGGGUGGGAACCGCGUCAUUCCAAAGUGGAUCUGCGGUGAAGCCAAGGAAGCCCCAUAGUUAUCAGCCACCUAAACCAGGGACCCAGCCUGGAAUUCUCGGGUGCCAA | 0.728 |
| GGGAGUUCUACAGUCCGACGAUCUGUUUUGGCCACGCCUCACCAAAUGUCUGUAAUGACCCAGUACUCACAACAUGUUCAGGAGGAGCUGGGUCAGAUUUUGACAGAGGGUAUGGGAAGGGAAAGGGGAGAAGUGGAAUUCUCGGGUGCCAA | 0.481 |
| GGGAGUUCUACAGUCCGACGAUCUGCUUUCUUGGUUUUUGAGAGUAAUUGUGUAAUUGUAGAGGGAGAAAUCCAAUUCUAACCUAAGAACUGGGAUUCUUCUGUCAUCUUGUAAACCGUAUAUUGAAAAAAACUGGAAUUCUCGGGUGCCAA | 0.373 |

Single results of other studies
| Substance | target | test | test system | setting | how to read | measurement | result |
| --- | --- | --- | --- | --- | --- | --- | --- |
| PhoQ, residues 284 288 289 292 302 303 GASLAW | PhoP, residues 12 14 15 18 19 MHTVL (Escherichia coli, UniProt P23836) | Sort-seq, item: YFP reporter | E. coli | PhoQ-PhoP variant library, added: 10 µM Mg2+ | baseline: high Mg2+ state, higher = stronger signaling | fold induction | 10.1 |

A few entries again (series 3):
| Strand | RBNS enrichment (R) |
| --- | --- |
| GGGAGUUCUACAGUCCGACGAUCUGUUUUGCGGGGAGAGGUGGCGGGGUGGGAACCGCGUCAUUCCAAAGUGGAUCUGCGGUGAAGCCAAGGAAGCCCCAUAGUUAUCAGCCACCUAAACCAGGGACCCAGCCUGGAAUUCUCGGGUGCCAA | 0.728 |
| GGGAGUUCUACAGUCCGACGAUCGCUGUGCCCGGGGCAGGCCUGACGGGCGGGCAGCUGAGGAUCGCAGAGCCCAUCUGCCUUACAGCCAGCCGGACAGACGUCCUACUACAUGCCACCCCCUCAGAGGACGUUGGAAUUCUCGGGUGCCAA | 0.341 |
| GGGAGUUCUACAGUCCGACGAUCUGUUUUGGCCACGCCUCACCAAAUGUCUGUAAUGACCCAGUACUCACAACAUGUUCAGGAGGAGCUGGGUCAGAUUUUGACAGAGGGUAUGGGAAGGGAAAGGGGAGAAGUGGAAUUCUCGGGUGCCAA | 0.481 |
